Results pooled from the literature.
Compare with care: the assays were run in different laboratories.
SIGMAR1: Sigma non-opioid intracellular receptor 1 (SIGMAR1, Homo sapiens, UniProt Q99720)
Chain of UniProt Q99720 (whole entry, looked up): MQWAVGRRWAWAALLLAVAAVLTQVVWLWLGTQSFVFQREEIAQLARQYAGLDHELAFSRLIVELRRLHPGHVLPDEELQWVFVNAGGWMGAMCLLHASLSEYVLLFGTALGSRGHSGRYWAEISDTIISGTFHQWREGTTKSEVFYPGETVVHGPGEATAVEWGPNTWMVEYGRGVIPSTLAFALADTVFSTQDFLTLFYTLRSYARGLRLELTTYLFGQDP
Chain of UniProt Q9H2X6 (whole entry, looked up): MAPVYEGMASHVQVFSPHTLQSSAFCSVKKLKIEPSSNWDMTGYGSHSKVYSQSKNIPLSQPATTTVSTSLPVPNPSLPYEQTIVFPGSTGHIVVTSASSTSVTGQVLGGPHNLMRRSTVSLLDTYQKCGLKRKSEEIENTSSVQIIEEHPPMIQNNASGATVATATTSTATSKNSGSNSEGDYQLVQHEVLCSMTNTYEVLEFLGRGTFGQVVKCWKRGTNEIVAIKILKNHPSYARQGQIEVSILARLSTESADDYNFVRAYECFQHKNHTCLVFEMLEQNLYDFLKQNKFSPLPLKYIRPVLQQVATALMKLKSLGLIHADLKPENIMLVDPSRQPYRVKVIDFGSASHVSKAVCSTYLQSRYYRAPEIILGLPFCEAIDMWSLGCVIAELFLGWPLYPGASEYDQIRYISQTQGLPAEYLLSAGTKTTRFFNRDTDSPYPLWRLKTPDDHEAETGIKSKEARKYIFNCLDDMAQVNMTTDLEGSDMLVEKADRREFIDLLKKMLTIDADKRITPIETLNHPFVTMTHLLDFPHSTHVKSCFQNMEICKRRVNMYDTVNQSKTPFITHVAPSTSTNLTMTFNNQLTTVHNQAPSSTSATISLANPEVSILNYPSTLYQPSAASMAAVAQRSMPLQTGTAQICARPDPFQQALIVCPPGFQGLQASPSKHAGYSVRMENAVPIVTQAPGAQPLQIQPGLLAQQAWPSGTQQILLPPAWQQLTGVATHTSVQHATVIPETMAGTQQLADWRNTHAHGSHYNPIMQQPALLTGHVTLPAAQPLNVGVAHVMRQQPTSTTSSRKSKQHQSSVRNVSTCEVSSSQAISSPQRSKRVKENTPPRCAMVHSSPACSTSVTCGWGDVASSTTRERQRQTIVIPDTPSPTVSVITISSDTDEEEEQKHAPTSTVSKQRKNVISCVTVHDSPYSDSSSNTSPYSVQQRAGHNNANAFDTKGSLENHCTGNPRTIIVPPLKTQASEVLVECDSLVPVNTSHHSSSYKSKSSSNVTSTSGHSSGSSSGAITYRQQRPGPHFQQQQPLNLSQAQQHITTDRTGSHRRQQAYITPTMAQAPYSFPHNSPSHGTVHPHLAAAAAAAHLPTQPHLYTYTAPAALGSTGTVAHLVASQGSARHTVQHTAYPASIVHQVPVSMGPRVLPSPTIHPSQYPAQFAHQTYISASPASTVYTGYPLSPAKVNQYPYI
Chain of UniProt P54756 (whole entry, looked up): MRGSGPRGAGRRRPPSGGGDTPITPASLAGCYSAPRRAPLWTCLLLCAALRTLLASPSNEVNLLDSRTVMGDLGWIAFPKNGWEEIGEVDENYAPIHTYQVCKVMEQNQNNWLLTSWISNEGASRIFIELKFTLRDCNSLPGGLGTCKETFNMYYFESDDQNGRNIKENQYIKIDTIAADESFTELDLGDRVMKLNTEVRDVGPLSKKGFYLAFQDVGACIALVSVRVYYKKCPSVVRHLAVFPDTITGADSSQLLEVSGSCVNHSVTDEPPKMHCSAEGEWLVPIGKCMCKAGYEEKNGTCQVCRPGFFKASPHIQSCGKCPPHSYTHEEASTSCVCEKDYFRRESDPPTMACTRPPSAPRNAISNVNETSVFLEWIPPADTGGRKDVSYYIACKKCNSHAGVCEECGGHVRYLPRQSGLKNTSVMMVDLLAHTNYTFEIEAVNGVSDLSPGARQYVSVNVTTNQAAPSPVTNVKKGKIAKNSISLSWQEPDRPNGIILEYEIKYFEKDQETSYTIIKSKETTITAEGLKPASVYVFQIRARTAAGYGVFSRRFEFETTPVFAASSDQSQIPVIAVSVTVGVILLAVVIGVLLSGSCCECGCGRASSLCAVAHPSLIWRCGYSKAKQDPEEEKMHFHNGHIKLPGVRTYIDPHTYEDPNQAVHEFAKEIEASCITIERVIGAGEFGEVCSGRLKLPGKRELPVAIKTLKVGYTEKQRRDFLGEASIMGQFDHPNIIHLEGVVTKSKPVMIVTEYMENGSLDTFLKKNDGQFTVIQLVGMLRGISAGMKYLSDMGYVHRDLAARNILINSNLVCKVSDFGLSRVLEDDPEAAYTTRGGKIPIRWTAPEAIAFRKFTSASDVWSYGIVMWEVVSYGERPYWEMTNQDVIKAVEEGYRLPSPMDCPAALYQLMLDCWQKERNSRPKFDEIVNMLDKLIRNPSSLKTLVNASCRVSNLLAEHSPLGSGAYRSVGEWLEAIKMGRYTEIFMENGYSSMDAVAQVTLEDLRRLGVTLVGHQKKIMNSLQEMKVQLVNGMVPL
Chain of UniProt O75388 (whole entry, looked up): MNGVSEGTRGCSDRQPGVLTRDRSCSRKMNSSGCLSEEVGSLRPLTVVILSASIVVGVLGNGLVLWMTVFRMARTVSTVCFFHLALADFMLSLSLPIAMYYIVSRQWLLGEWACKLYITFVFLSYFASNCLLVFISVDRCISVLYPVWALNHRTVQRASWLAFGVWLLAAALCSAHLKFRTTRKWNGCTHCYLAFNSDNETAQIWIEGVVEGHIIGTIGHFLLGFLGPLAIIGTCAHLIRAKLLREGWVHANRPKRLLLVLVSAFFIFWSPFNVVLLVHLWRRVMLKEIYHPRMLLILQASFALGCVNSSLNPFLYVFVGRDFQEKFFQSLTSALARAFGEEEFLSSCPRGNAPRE
Chain of UniProt Q13882 (whole entry, looked up): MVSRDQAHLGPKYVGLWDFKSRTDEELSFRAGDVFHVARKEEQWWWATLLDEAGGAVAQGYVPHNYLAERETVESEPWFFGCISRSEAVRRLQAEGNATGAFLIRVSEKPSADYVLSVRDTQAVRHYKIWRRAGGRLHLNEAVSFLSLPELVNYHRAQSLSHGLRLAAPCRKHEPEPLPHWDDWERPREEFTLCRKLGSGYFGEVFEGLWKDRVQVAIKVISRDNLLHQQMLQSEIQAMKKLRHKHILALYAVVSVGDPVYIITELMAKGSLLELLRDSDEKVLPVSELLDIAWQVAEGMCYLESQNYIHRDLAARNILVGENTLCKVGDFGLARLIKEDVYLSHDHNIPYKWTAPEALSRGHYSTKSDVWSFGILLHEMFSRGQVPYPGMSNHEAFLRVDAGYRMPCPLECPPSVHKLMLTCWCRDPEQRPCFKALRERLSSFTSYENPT
Chain of UniProt O76083 (whole entry, looked up): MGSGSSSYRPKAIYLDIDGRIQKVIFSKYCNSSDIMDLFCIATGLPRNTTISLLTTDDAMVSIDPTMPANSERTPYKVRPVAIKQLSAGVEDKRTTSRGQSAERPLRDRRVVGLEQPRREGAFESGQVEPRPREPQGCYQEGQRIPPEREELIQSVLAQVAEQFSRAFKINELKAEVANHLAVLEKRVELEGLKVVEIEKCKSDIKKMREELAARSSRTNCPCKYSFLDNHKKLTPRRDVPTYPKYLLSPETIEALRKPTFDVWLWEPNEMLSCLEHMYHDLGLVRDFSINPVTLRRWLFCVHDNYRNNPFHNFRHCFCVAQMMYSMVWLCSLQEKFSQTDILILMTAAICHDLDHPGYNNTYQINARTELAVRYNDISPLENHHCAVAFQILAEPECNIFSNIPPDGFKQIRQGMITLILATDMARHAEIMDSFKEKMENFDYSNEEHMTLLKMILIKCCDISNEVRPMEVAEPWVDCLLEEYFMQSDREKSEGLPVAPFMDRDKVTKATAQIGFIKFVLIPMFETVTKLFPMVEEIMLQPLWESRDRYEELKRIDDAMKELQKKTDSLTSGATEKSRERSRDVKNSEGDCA
Chain of UniProt P25774 (whole entry, looked up): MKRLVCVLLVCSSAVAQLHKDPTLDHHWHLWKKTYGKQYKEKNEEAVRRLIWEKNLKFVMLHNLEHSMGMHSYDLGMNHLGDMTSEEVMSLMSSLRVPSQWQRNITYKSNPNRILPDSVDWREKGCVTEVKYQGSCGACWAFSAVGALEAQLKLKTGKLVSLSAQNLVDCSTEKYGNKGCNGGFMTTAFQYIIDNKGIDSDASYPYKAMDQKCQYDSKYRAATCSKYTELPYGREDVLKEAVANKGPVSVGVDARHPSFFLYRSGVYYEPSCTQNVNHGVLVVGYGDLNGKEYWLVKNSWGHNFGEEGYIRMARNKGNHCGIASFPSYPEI
Chain of UniProt Q0VDG4 (whole entry, looked up): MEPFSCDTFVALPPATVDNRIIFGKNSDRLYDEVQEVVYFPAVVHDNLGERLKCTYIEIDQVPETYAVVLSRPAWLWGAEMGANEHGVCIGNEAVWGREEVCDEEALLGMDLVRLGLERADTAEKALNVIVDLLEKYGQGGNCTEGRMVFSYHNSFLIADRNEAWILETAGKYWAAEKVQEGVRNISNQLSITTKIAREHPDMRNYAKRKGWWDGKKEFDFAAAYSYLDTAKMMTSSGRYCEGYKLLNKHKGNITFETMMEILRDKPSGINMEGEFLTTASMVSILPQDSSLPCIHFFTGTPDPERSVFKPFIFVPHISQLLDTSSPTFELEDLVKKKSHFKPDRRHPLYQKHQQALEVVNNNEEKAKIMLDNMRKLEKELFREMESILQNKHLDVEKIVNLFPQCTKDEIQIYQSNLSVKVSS

With CC1=Cc2ccccc2C12CCN(C1Cc3ccccc3CC1O)CC2 (racemic) the selectivity ratio was 4.7 (SIGMAR1; rat liver (sigma2), human sigma1; reference: Ki sigma2 over Ki sigma1).
The selectivity ratio of COc1ccc(F)cc1C(=O)NCc1ccc(-c2nn([C@@H](C)C(F)(F)F)c(N)c2C(N)=O)cc1 is reported as 546 (PTK6 (Homo sapiens, UniProt Q13882); target engagement, NanoBRET; HEK293; reference: PTK6 over BTK).
CCn1c(-c2nc3cc(C(=O)N4CCC[C@@H](N)C4)cc(OC)c3n2C)cc2cccnc21 has a selectivity ratio of 99 (PADI2 (Homo sapiens, UniProt Q9Y2J8); reference: Ki PADI2 over Ki PAD4).
CC[C@H](C)[C@@H]1NC(=O)[C@@H]2CCCN2C(=O)[C@H](CC(C)C)NC(=O)[C@H](CC(C)C)NC(=O)CNC(=O)[C@@H](NC(=O)[C@@H](NC(=O)[C@H](CC(=O)O)NC(=O)CNC(=O)[C@@H](NC(=O)[C@H](C)NC(=O)CNC(=O)[C@H](CCCCN)NC(=O)[C@H](CC(C)C)NC(=O)[C@H](CC(C)C)NC(=O)[C@H](CCCCN)NC(=O)CNC(=O)[C@@H](NC(=O)[C@@H](N)CC(C)C)C(C)C)C(C)C)C(C)C)CSSC[C@@H](C(=O)O)NC1=O: “log2 fold change” -1.81 (RNA-seq, item: Dram1; mouse, traumatic brain injury model, frontal cortex and hippocampus; dose not given; reference: TBI alone).
The selectivity ratio of O[C@@H]1CCCC[C@H]1N1CCC(c2ccccc2)CC1 (racemic) is reported as 5.5 (SIGMAR1; rat liver (sigma2), human sigma1; reference: Ki sigma2 over Ki sigma1).
O=C(Nc1cnccc1Cl)N1CCN(Cc2ccc3c(c2)OC(F)(F)O3)CC1 gave an inhibition of -1% (HIPK2 (Homo sapiens, UniProt Q9H2X6); kinase activity, inhibitor; 10 µM, with: myelin basic protein substrate).
The selectivity ratio of OC1Cc2ccccc2CC1N1CCC2(CC1)C(Br)=Cc1ccccc12 (racemic) is reported as 22 (SIGMAR1; rat liver (sigma2), human sigma1; reference: Ki sigma2 over Ki sigma1).
The relative abundance of C[C@H]1CN(c2n[nH]c3nc(N[C@H]4CC[C@H](NS(=O)(=O)CCC(F)(F)F)CC4)ncc23)CCO1 is reported as 1.02 (MED23 (Homo sapiens, UniProt Q9ULK4); inhibitor, Kinobeads competition profiling; 0.8 µM; reference: vehicle).
Oc1ccc2c3c1O[C@H]1[C@@H](O)CC[C@@]4(O)[C@@H](C2)N(CC2CCC2)CC[C@]314 — result for “log2 fold change”: 0.264 (GPR32 (Homo sapiens, UniProt O75388); β-arrestin recruitment, TANGO luminescence; concentration not given; reference: basal luminescence).
Cn1nccc1[C@]1(CNC(=O)c2ccc(F)c(F)c2-c2ccc(C(F)(F)F)cc2)NC(=O)NC1=O has a selectivity ratio of over 16700 (Cathepsin S (CTSS, Homo sapiens, UniProt P25774); inhibitor; reference: CTSS over target).
COc1cc2nccc(Oc3ccc(NC(=O)c4cc5c(n(-c6ccccc6)c4=O)CCCC5=O)nc3)c2cc1OC gave a selectivity ratio of over 100 (EPHA5 (Homo sapiens, UniProt P54756); cell viability, CellTiter-Glo; Ba/F3 expressing recombinant kinase; reference: EPHA5 IC50 over AXL IC50).
Cc1ccc([C@H]2C[C@@H]2COc2cc(NCc3nnc(C)s3)nc(C)n2)nc1 has a selectivity ratio of over 1.88e+06 fold (PDE9A (Homo sapiens, UniProt O76083); enzyme activity, inhibitor, IMAP fluorescence polarization; isoform PDE9A2; reference: Ki target over Ki PDE10A2).
For NNc1ccc(F)cc1, the selectivity ratio was 25 fold (Secernin-3 (Homo sapiens, UniProt Q0VDG4); gel-based ABPP; HEK-293T lysate; reference: IC50 SCRN2 over Secernin-3).

A few entries again:
CCn1c(-c2nc3cc(C(=O)N4CCC[C@@H](N)C4)cc(OC)c3n2C)cc2cccnc21 has a selectivity ratio of 99 (PADI2 (Homo sapiens, UniProt Q9Y2J8); reference: Ki PADI2 over Ki PAD4).
